Experimental data from different studies.
Each numbered part is a random draw from the data of one study; scales do not carry over between parts.

Sample 1 — technique: protein-binding microarray; form: double-stranded DNA, one strand shown; sample: in vitro; concentration: 250 nM; setting: 60-bp whole probe; together with: salmon DNA 0.4 mg/ml; reference: random background probes; reading: higher = stronger binding; quantity: log fluorescence; all sequences stand within: GCCTAGCAC … GTCTTGATTCGCTTGACGCTGCTG
Target: Interferon regulatory factor 5, full length, phosphomimetic (IRF5, Homo sapiens, UniProt Q13568-2, residues 1-514, K96S/S451D/S453D/S456D/S462D)
TTAGGGCTCCTTCTCCTTTAGTGCTAG: -0.348 z-score
TTGGGTTTCCTTCTCCTTTAGTGCTAG: 0.697 z-score
GACGGTATCCTTCTTCTGACGTGCTAG: 0.277 z-score
TCATCATTCCAATTCTTACTGTGCTAG: 0.896 z-score
GACGAACTGGGCTATCGAGACGTGCTA: 0.263 z-score
GTCGGTATCGACTTTCGGGACGTGCTA: 7.46 z-score

Sample 2 — technique: universal PBM; form: double-stranded DNA, one strand shown; sample: in vitro; concentration: 600 nM; reading: higher = stronger binding; quantity: E-score
Target: Sal-like protein 4, full length isoform A (SALL4, Homo sapiens, UniProt Q9UJQ4, residues 1-1053)
Chain of UniProt Q9UJQ4 (whole entry, looked up): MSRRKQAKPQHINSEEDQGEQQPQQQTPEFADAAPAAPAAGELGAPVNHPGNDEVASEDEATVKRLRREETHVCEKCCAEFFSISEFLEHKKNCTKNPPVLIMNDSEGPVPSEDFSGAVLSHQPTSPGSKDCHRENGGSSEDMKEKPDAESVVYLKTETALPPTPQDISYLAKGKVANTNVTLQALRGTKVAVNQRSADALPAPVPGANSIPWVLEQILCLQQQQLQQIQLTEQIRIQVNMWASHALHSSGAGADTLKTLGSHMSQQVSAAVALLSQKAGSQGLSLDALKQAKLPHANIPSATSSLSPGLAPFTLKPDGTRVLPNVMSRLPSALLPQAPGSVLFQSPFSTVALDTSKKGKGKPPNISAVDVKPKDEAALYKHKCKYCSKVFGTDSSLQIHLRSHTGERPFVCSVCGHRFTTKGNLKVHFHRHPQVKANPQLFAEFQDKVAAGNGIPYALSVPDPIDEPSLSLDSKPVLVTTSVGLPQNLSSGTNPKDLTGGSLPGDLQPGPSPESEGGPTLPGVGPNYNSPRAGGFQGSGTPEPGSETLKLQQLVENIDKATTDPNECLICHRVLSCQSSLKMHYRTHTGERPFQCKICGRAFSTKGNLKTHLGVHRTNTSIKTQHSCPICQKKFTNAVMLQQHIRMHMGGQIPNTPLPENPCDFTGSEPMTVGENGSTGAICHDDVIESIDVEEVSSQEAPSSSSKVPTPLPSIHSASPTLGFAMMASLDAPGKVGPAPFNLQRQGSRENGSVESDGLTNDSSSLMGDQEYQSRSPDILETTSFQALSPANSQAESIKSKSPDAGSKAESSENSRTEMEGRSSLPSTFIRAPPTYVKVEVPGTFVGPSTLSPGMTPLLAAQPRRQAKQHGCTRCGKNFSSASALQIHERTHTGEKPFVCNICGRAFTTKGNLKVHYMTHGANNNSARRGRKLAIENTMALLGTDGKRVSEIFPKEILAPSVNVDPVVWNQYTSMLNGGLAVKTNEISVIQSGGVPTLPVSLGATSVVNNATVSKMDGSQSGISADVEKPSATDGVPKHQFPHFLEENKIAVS
Setting: 8-mer, flanks averaged, mean of replicates
TGGGCAAA: -0.0126
AGGTATCC: -0.0391
GAATTCAA: 0.0949
ACTTTGAC: 0.0582
GACACTTA: 0.0602
AAATGTAC: 0.27
CGACAAAG: 0.13

Sample 3 — technique: protein binding microarray; form: double-stranded DNA, one strand shown; sample: in vitro; concentration: not given; reference: not given; reading: higher = stronger binding; quantity: E-score
Target: Histone acetyltransferase KAT6A, winged helix 1, GST fusion (KAT6A, Homo sapiens, UniProt Q92794, residues 1-85)
Setting: 8-mer, flanks averaged, mean of 2 arrays, mostly near background
Construct (chain): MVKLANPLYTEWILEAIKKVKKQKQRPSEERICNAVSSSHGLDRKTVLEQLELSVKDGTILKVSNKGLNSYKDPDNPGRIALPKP
AAATGATT: -0.192
CCGCTCTC: 0.248
GGGCCGGA: 0.126
ATTTCGCA: -0.0419
GGAATTCA: -0.233

Mixed results
PhoQ, residues 284 288 289 292 302 303 AGGCYF  fold induction (PhoP, residues 12 14 15 18 19 LHTVM (Escherichia coli, UniProt P23836); Sort-seq, measured: YFP reporter; E. coli; PhoQ-PhoP variant library, together with: 10 µM Mg2+; reference: high Mg2+ state, higher = stronger signaling): 8.45

Excerpt of the above (sample 3):
GGGCCGGA: 0.126
CCGCTCTC: 0.248
